{"data": "Assay results gathered from unrelated publications", "note": "Each numbered part is a random draw from the data of one study; scales do not carry over between parts."}
{"data": "Sample 1", "target": "Interferon regulatory factor 7, full length, phosphomimetic (IRF7, Homo sapiens, UniProt Q92985, residues 1-503, S471D/S472D/S475D/S476D/S477D/S483D/S484D/S487D)", "technique": "protein-binding microarray", "molecule type": "double-stranded DNA, one strand shown", "matrix": "in vitro", "concentration": "2200 nM top", "notes": "60-bp whole probe", "with": "salmon DNA 0.4 mg/ml", "baseline": "random background probes", "direction": "higher = stronger binding", "all sequences stand within": "GCCTAGCAC … GTCTTGATTCGCTTGACGCTGCTG", "chain of UniProt Q92985 (whole entry, unmodified, looked up)": "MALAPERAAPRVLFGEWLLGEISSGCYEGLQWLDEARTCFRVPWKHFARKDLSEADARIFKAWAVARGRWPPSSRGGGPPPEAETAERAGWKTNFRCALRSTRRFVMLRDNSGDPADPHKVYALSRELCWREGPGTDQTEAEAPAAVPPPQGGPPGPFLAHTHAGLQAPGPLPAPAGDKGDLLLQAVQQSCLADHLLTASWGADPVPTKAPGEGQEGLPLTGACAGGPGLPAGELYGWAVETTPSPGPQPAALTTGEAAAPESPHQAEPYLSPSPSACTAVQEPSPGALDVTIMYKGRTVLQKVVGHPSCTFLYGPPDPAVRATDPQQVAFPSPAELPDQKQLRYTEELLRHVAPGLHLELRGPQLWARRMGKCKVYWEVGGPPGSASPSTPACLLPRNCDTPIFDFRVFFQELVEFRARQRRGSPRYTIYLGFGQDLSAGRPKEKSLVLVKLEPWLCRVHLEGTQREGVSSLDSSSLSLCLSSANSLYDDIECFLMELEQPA"}
{"Sequence": "TCACAACTTTTTTTAATACTGTGCTAG", "fitted relative affinity": "0.0678 z-score"}
{"Sequence": "GGTATTATTTATTGTAGCCTCGTGCTA", "fitted relative affinity": "0.405 z-score"}
{"Sequence": "CATTTTCTCTTATTCTAACAGTGCTAG", "fitted relative affinity": "3.42 z-score"}
{"Sequence": "TCAACTAGCGGGTCTTGCACTGTGCTA", "fitted relative affinity": "-0.224 z-score"}
{"Sequence": "TTAGGTCTCGTTTTCGGTTAGTGCTAG", "fitted relative affinity": "6.93 z-score"}
{"Sequence": "GACGATATCAGGCTGGAGACGTGCTAG", "fitted relative affinity": "-0.145 z-score"}
{"Sequence": "TTAAGACTGGACTATCGGTTAGTGCTA", "fitted relative affinity": "-0.347 z-score"}
{"Sequence": "TCACTCCTCTCTCTTTCACTGTGCTAG", "fitted relative affinity": "2.51 z-score"}
{"Sequence": "TTAGATATCAGTTTCGAATAGTGCTAG", "fitted relative affinity": "2.13 z-score"}
{"Sequence": "GACGGTTTCGGGTTTCGGGTCGTGCTA", "fitted relative affinity": "11.4 z-score"}
{"Sequence": "TCACATCTCCAGTAGCCTACTGTGCTA", "fitted relative affinity": "1.55 z-score"}
{"Sequence": "GACGGAGTGGACTTTCGGGACGTGCTA", "fitted relative affinity": "2.26 z-score"}
{"Sequence": "GACGATTTCGGGTTACGAGACGTGCTA", "fitted relative affinity": "5.78 z-score"}
{"Sequence": "TTAGTTATCGACACTGGGTTAGTGCTA", "fitted relative affinity": "0.26 z-score"}
{"Sequence": "TCATCTCTCATGTTACAACTGTGCTAG", "fitted relative affinity": "1.78 z-score"}
{"Sequence": "GACGAACTGGGGTTTCGACACGTGCTA", "fitted relative affinity": "0.846 z-score"}
{"Sequence": "GACGGACTGTGGTTTCGGGACGTGCTA", "fitted relative affinity": "2.02 z-score"}
{"Sequence": "GAAGGACTGGGTCTCGGGACGTGCTAG", "fitted relative affinity": "-0.828 z-score"}
{"Sequence": "TTAGGTCTCGGTATCGTTTAGTGCTAG", "fitted relative affinity": "0.957 z-score"}
{"data": "Sample 2", "target": "Histone acetyltransferase KAT6A, both winged helices, GST fusion (KAT6A, Homo sapiens, UniProt Q92794, residues 1-181)", "technique": "protein binding microarray", "molecule type": "double-stranded DNA, one strand shown", "matrix": "in vitro", "concentration": "not given", "notes": "8-mer, flanks averaged, mean of 2 arrays, mostly near background", "baseline": "not given", "direction": "higher = stronger binding", "Construct (chain)": "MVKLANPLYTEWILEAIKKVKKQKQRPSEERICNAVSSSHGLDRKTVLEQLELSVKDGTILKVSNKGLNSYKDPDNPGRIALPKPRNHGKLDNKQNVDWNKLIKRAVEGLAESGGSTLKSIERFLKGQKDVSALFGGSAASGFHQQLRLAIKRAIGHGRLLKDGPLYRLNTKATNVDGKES"}
{"Sequence": "AAAACGGT", "E-score": 0.0866}
{"Sequence": "TATGCATA", "E-score": -0.0846}
{"Sequence": "ACGCAACT", "E-score": -0.0474}
{"Sequence": "AATTAGCC", "E-score": 0.0117}
{"Sequence": "ACGAGCGG", "E-score": 0.249}
{"Sequence": "ATTCGCGC", "E-score": 0.32}
{"Sequence": "CTTCGGTA", "E-score": -0.0784}
{"Sequence": "CCAATCAC", "E-score": -0.107}
{"Sequence": "GGTGCTAC", "E-score": -0.0524}
{"Sequence": "CAAAAGTC", "E-score": -0.0402}
{"Sequence": "ACGTGTCA", "E-score": -0.0428}
{"Sequence": "CTTACGAC", "E-score": -0.0268}
{"Sequence": "ATGTTACC", "E-score": 0.0204}
{"Sequence": "GGAAGAAA", "E-score": -0.0318}
{"Sequence": "ACTTCTGG", "E-score": -0.207}
{"Sequence": "CGGTTTGA", "E-score": 0.145}
{"Sequence": "AACCACTG", "E-score": -0.105}
{"Sequence": "GGCATATA", "E-score": 0.0587}
{"Sequence": "AGATCATG", "E-score": -0.0658}
{"Sequence": "CCCACAAG", "E-score": -0.0709}
{"Sequence": "ACCGAGTC", "E-score": -0.0729}
{"data": "Sample 3", "target": "PABPC1L2, full length, GST fusion (mouse, UniProt A0ABA7IW68)", "technique": "RNAcompete", "molecule type": "RNA", "matrix": "in vitro", "concentration": "20 nM", "notes": "7-mer, probes averaged, single round", "baseline": "mean of 7-mers", "direction": "higher = stronger binding"}
{"Sequence": "UUUCUCU", "7-mer Z-score": -0.38}
{"Sequence": "AUGUAGC", "7-mer Z-score": -0.162}
{"Sequence": "CGACCCA", "7-mer Z-score": -0.05}
{"Sequence": "GAAAAGG", "7-mer Z-score": 1.4}
{"Sequence": "AAAGGGA", "7-mer Z-score": 1.07}
{"Sequence": "GGCUAAC", "7-mer Z-score": 0.0587}
{"Sequence": "GCCAAAU", "7-mer Z-score": 0.126}
{"Sequence": "UAUUUUC", "7-mer Z-score": -0.333}
{"Sequence": "CCCUGUU", "7-mer Z-score": -0.478}
{"Sequence": "UGGUUCU", "7-mer Z-score": -0.277}
{"Sequence": "GCAGUAG", "7-mer Z-score": -0.164}
{"Sequence": "AUCUACU", "7-mer Z-score": -0.215}
{"Sequence": "CCUUGCA", "7-mer Z-score": -0.34}
{"Sequence": "CCGCUGG", "7-mer Z-score": -0.293}
{"Sequence": "AAGCGGC", "7-mer Z-score": 0.36}
{"data": "Sample 4", "target": "RNA binding protein fox-1 homolog 2, RRM domain, GST-SBP tag (RBFOX2, Homo sapiens, UniProt O43251-10, residues 100-194)", "technique": "RNA Bind-n-Seq", "molecule type": "RNA", "matrix": "in vitro", "concentration": "365 nM", "notes": "natural RNA segment, single round, ends assumed", "baseline": "no-protein control", "direction": "higher = stronger binding", "all sequences stand within": "GGGAGUUCUACAGUCCGACGAUC … UGGAAUUCUCGGGUGCCAA", "Construct (chain)": "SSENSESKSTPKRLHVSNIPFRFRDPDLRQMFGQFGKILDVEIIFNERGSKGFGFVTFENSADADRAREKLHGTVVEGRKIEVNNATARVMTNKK"}
{"Sequence": "GAUGGGGGGAACGGACAGAUAUUCCCAUCUUGGAGGUCAUCCAUUAGGAAUUAAAUUCUCCAGCUUCCUCUUGGCUCCUUCCUGACUUGUUAGCAGUUGCAGAUGUGACA", "RBNS enrichment (R)": 1.27}
{"Sequence": "GUUUCUCAGCUCCCAAGGCUCUGAGCAAAUGUGGCUCCUGGGGGUUCUUUCUUCCUCUGCUGAAGGAAUAAAUUGCUCCUUGACAUUGUAGAGCUUCUGGCACUUGGAGA", "RBNS enrichment (R)": 0.286}
{"Sequence": "UACAUAAAAGGAAGGUAUUGGCUGAACUGAAUAGAGGUCUUGAUCUUUGGAAUGCAUGCCAGUAAUGUAUUUUACAGUACAUGUUUAUUAUGUUCAAUAUUUGUAUUUGU", "RBNS enrichment (R)": 0.876}
{"Sequence": "UCAUAGAGGCCAUUGGCUUCCUUUGUAUAAGGAGAGGGAGAAGUGAUUCUGGAAGGAGAAGUUGGUAUGUCUAGCUUCAUUGCGGCCCCUCGGGCUACCCAGCAAGAGGA", "RBNS enrichment (R)": 0.274}
{"Sequence": "AACACUCUUAGAAUUCCCAUUUAAUAAACCAUAUGAGAAAACCCUCUAUUACUCUUACACUUUAGUUUUACCAUUUGAGUAGCCACUUAUUCACCAGAGUUGGAAUUGAG", "RBNS enrichment (R)": 0.851}
{"Sequence": "UCUUUGAUUUCAUAGUGAGUUUUCUAAAAGACCAGCCGACUAGCUUUUGCAGACUUUGAACAGAACUCUGGUUCCUGUGUUGCCUCUAAUGAAGUAUUCUGUUCCUAGUU", "RBNS enrichment (R)": 0.579}
{"Sequence": "CAUAUGGAGGGGUGUCAGGUUCUAUGUGACCCAGUAAUGAGAAGAGCUUGAAGGUGAGGCCUGAGGGGCCACAGAUGAGUCAUGUUUUAGUGCUGAUGACAGAGGGGCCG", "RBNS enrichment (R)": 1.84}
{"Sequence": "AUUUUGAGUGCUGUUUCCUUUUUAGGAAAGAACAGCACUGUGGAAAUUUGCUUUUCCCCAUAGCAUGUUAGGAAGGAAGUACAGGUCGUUACCUAAGCUAGCGUGGGCUU", "RBNS enrichment (R)": 12}
{"note": "For quick reference, copied from above (sample 2):"}
{"Sequence": "AAAACGGT", "E-score": 0.0866}
{"Sequence": "TATGCATA", "E-score": -0.0846}
{"Sequence": "ACGCAACT", "E-score": -0.0474}
{"Sequence": "AATTAGCC", "E-score": 0.0117}
{"Sequence": "ACGAGCGG", "E-score": 0.249}
{"Sequence": "ATTCGCGC", "E-score": 0.32}
{"Sequence": "CTTCGGTA", "E-score": -0.0784}
